Experimental data from different studies.
Compare with care: the assays were run in different laboratories. ± marks the error that the study gave.
Action: substrate
MIPEP: Mitochondrial intermediate peptidase (MIPEP, Homo sapiens, UniProt Q99797)
HDAC8: Histone deacetylase 8 (HDAC8, Homo sapiens, UniProt Q9BY41)

Protein sequences, listed by entry. Tags and fused reporters are not part of them. Residues count along the entry.
UniProt Q99797, 36-713 limits assumed: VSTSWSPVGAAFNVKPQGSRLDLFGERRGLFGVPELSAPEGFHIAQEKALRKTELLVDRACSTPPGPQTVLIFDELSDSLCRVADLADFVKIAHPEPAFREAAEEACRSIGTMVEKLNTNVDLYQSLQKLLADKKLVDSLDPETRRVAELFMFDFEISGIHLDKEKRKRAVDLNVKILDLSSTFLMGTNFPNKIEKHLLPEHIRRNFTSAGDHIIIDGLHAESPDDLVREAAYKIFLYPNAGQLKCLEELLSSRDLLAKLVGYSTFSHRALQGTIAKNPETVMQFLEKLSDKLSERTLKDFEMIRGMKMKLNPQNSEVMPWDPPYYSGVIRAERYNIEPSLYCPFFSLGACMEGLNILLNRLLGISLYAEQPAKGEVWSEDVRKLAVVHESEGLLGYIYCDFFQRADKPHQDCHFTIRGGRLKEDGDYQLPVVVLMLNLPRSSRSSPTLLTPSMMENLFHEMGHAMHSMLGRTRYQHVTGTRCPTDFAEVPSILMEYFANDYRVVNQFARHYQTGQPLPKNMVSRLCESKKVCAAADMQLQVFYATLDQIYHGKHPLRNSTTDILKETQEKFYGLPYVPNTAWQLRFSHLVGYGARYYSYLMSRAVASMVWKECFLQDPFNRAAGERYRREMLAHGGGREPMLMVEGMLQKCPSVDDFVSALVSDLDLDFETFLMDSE
UniProt Q9BY41, whole entry: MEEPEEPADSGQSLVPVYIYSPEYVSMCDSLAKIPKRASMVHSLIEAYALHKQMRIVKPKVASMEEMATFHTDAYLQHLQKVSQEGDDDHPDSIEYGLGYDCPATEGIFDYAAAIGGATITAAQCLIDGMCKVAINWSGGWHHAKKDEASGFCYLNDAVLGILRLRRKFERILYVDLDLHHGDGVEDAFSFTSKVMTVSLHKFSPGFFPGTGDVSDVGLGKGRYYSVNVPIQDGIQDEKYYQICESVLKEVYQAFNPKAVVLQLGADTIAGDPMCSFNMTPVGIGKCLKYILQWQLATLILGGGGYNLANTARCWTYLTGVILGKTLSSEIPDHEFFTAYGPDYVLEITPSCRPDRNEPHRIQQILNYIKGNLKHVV
UniProt Q9UDY8, whole entry: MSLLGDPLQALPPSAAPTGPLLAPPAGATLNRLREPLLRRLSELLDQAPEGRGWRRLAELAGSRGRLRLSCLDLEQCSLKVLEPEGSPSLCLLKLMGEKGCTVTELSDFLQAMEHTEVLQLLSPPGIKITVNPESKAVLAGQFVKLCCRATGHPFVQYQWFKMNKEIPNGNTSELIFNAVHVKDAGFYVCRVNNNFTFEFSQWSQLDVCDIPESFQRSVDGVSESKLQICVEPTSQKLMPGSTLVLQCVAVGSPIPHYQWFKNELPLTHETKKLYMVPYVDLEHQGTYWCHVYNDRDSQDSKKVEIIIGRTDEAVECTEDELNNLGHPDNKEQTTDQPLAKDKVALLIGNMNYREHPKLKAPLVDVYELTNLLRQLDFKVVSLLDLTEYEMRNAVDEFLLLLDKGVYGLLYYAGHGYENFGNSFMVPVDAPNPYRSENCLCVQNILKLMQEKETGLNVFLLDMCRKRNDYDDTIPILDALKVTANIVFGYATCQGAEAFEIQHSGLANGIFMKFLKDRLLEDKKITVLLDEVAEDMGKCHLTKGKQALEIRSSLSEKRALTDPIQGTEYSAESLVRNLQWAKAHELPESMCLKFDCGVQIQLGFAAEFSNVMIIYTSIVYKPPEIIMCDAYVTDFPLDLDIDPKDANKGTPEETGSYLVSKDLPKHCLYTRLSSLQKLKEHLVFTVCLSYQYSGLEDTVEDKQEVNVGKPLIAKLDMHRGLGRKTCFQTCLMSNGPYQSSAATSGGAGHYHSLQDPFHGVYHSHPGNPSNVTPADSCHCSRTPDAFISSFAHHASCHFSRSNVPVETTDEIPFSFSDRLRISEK
UniProt Q9UBN7, whole entry: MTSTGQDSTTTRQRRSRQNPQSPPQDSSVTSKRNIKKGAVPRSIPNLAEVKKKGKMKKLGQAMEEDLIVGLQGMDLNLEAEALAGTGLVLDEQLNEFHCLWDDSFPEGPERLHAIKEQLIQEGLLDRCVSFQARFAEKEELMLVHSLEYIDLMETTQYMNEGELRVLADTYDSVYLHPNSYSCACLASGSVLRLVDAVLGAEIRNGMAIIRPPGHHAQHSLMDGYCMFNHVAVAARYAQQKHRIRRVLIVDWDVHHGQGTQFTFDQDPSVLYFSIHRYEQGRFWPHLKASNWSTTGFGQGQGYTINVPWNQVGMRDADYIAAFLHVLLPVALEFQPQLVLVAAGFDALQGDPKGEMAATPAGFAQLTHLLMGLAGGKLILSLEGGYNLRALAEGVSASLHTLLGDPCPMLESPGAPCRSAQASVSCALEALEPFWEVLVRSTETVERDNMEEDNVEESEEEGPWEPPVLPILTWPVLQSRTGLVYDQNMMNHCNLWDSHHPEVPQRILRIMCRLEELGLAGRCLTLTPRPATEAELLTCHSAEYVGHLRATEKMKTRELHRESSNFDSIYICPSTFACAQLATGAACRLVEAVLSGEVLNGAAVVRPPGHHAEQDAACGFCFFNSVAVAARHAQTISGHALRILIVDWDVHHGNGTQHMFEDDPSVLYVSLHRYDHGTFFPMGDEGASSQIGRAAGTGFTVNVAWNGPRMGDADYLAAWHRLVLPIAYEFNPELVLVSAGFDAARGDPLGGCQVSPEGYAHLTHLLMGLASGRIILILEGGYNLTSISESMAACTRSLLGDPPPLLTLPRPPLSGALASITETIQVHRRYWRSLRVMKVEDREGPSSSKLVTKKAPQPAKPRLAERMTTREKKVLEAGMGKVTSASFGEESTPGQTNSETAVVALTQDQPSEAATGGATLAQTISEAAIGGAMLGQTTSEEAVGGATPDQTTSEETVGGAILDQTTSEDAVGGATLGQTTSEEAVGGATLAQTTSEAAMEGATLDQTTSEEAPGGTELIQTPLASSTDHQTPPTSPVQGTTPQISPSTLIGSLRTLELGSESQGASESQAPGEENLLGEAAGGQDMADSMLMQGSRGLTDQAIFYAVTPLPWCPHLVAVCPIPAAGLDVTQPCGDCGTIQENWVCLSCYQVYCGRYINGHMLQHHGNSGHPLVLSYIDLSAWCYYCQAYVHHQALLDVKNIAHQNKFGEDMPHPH
UniProt P30419, whole entry: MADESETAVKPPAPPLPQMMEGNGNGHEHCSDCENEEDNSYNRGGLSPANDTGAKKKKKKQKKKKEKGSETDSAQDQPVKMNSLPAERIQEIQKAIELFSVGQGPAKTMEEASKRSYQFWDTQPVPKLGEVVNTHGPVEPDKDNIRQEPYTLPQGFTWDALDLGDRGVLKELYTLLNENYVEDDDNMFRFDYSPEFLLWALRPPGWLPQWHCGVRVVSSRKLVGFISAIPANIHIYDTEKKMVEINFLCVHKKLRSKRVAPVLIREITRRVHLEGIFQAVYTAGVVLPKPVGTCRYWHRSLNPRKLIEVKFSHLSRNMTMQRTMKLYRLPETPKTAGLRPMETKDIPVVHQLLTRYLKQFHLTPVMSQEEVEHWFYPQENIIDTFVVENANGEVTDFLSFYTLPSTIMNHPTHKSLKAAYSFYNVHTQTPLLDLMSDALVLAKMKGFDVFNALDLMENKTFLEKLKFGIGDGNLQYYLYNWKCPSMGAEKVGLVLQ
UniProt P17706, whole entry: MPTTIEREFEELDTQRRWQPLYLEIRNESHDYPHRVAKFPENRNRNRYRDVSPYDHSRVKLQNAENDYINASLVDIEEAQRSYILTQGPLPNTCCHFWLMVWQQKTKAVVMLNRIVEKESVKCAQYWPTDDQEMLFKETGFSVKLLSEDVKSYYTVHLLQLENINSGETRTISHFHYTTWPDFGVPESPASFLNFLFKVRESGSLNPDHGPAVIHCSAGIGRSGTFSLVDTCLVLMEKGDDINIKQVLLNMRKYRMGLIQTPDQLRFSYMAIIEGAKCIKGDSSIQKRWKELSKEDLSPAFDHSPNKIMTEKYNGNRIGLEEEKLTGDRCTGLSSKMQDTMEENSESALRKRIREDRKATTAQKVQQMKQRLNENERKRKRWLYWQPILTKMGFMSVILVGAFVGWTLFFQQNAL
UniProt Q99K82, whole entry: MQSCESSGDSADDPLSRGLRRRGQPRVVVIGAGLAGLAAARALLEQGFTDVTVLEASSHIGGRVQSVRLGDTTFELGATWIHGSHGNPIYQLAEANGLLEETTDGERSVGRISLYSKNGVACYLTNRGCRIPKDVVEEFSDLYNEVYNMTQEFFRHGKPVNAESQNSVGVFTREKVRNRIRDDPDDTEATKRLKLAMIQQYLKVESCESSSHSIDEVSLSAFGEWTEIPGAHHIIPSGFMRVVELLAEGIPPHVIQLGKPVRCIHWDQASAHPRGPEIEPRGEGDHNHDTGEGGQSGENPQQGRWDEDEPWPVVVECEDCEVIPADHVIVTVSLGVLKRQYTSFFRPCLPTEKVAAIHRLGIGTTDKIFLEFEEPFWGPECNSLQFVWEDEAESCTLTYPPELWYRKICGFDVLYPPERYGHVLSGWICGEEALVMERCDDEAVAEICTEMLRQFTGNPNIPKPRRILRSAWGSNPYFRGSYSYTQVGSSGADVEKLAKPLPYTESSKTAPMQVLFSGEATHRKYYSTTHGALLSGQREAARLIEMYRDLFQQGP

| Structure (SMILES) | target | test | conditions | Km [µM] |
| --- | --- | --- | --- | --- |
| CSCC[C@H](NC(=O)c1ccccc1N)C(=O)N[C@H](C(=O)N[C@@H](C)C(=O)N[C@@H](C)C(=O)N[C@@H](CC(C)C)C(=O)N[C@@H](CCCCN)C(=O)N[C@H](C(=O)N[C@@H](CCCCNc1ccc([N+](=O)[O-])cc1[N+](=O)[O-])C(N)=O)[C@@H](C)O)[C@@H](C)O | MIPEP | FRET peptide hydrolysis | multiple cleavage sites | 4.2 |
| CC(=O)N[C@@H](CC(C)C)C(=O)N[C@@H](CCCNC(=N)N)C(=O)N[C@@H](CO)C(=O)N[C@@H](CCCNC(=N)N)C(=O)Nc1ccc2c(CC(N)=O)cc(=O)oc2c1 | MALT1 (Homo sapiens, UniProt Q9UDY8) | fluorogenic peptide hydrolysis | 20 min preincubation, pH 7.5, 37 °C, enzyme 399 nM, citrate 0.9 M | 15.6 |
| CC(=O)NCCCC[C@H](NC(C)=O)C(=O)Nc1ccc2c(C)cc(=O)oc2c1 | HDAC6 (Homo sapiens, UniProt Q9UBN7) | – | 25 °C | 15 ± 7 |
| N=C(N)NCCC[C@H](NC(=O)[C@H](Cc1ccc(O)cc1)NC(=O)[C@H](Cc1c[nH]cn1)NC(=O)[C@H](CCCNC(=N)N)NC(=O)[C@H](CO)NC(=O)[C@H](CCC(=O)O)NC(=O)[C@H](CCCNC(=N)N)NC(=O)CN)C(=O)O | NMT1 (Homo sapiens, UniProt P30419) | – | – | < 0.1 |
| Cc1cc(=O)oc2cc(NC(=O)[C@H](Cc3ccc(O)cc3)NC(=O)[C@@H](NC(=O)[C@H](CC(C)C)NC(=O)[C@H](CC(C)C)NC(=O)CCC(=O)O)C(C)C)ccc12 | PSMB5 (Homo sapiens, UniProt P28074) | chymotrypsin-like activity | pH 7.8, 37 °C, with: oligomeric Aβ(1-42) 1 µM | 20 ± 4.2 |
| CC(=O)NCCCC[C@H](NC(=O)CNC(=O)[C@H](CCCNC(=N)N)NC(C)=O)C(=O)N[C@@H](Cc1c[nH]c2ccccc12)C(N)=O | HDAC8 | – | 25 °C | 2700 ± 1700 |
| CC[C@H](C)[C@H](NC(=O)[C@H](CC(=O)O)NC(C)=O)C(=O)N[C@@H](CC(=O)O)C(=O)N[C@@H](CCC(=O)O)C(=O)N[C@@H](Cc1cc(=O)oc2cc(OP(=O)(O)O)ccc12)C(=O)N[C@@H](CC(C)C)C(=O)N[C@@H](C)C(=O)N[C@@H](C)C(N)=O | PTPN2 (Homo sapiens, UniProt P17706) | peptide hydrolysis | – | 320 ± 20 |
| CC(C)C[C@H](NC(=O)[C@@H]1CCCN1C(=O)[C@H](CCC(N)=O)NC(=O)c1ccccc1N)C(=O)N[C@@H](C)C(=O)N[C@@H](CC(N)=O)C(=O)N[C@@H](CCCCN)C(=O)N[C@H](C(=O)N[C@@H](CCC(N)=O)C(=O)NCCNc1ccc([N+](=O)[O-])cc1[N+](=O)[O-])C(C)C | MIPEP | FRET peptide hydrolysis | – | 5.1 |
| CC(=O)NCCCC[C@H](NC(C)=O)C(N)=O | HDAC8 | – | 25 °C | 800 ± 400 |
| NCCCNCCCCNCCCNCc1ccccn1 | Smox (Mus musculus, UniProt Q99K82) | Amplex Red/HRP | pH 7.5, 37 °C | 245 ± 80 |

Excerpt of the above:
| Structure (SMILES) | target | test | conditions | Km [µM] |
| --- | --- | --- | --- | --- |
| CC(=O)NCCCC[C@H](NC(=O)CNC(=O)[C@H](CCCNC(=N)N)NC(C)=O)C(=O)N[C@@H](Cc1c[nH]c2ccccc12)C(N)=O | HDAC8 | – | 25 °C | 2700 ± 1700 |
| CC[C@H](C)[C@H](NC(=O)[C@H](CC(=O)O)NC(C)=O)C(=O)N[C@@H](CC(=O)O)C(=O)N[C@@H](CCC(=O)O)C(=O)N[C@@H](Cc1cc(=O)oc2cc(OP(=O)(O)O)ccc12)C(=O)N[C@@H](CC(C)C)C(=O)N[C@@H](C)C(=O)N[C@@H](C)C(N)=O | PTPN2 (Homo sapiens, UniProt P17706) | peptide hydrolysis | – | 320 ± 20 |
